Earlier results, collected from citations in different studies.
Protocols differ between the studies behind these lines. ± gives the spread as reported.
EGFR: Epidermal growth factor receptor (EGFR, Homo sapiens, UniProt P00533)
EGFR L858R: Epidermal growth factor receptor (EGFR, Homo sapiens, UniProt P00533, L858R)

Cc1cc(C)nc(NS(=O)(=O)c2ccc(-n3cc(CSc4nc5ccccc5s4)nn3)cc2)n1
IC50 (EGFR; inhibitor): 103 nM

O=C(NN=Cc1ccc(O)cc1)Nc1cc2c(Nc3ccc(F)c(Cl)c3)ncnc2cc1OC1CCOC1 (stereo not drawn)
IC50 (EGFR): 56 nM

O=C(CSc1nc2ccccc2c(=O)n1-c1ccccc1)NNC(=O)c1cccc(Cl)c1
IC50 (EGFR): 590 nM

Fc1ccc(Nc2nc(-c3ccc(Cl)cc3)nc3ccc(-c4ccc(F)cc4)cc23)cc1
IC50 (EGFR): 59.2 nM

C=CC(=O)N1CCC[C@@H](n2nc(-c3cccc4ccccc34)c3c(N)ncnc32)C1
Ki (EGFR L858R): 44 ± 6.5 nM

COc1ccc(-c2nc3n(n2)CC(c2ccc(Cl)cc2)C3)cc1 (stereo not drawn)
IC50 (EGFR; inhibitor): 1500 nM

COc1ccc(/C=C/C(=O)OCc2cn(-c3ccccc3)nc2-c2ccc(F)cc2)cc1
IC50 (EGFR): 4870 nM

C=CC(=O)N1CCC[C@@H](n2nc(-c3ccc4ccccc4c3)c3c(N)ncnc32)C1
IC50 (EGFR L858R): 1.1 ± 0.6 nM

CCc1cccc(NC(=O)CSc2nc3ccccc3c(=O)n2-c2ccccc2)c1
IC50 (EGFR; kinase activity, inhibitor): 58300 nM

Repeated from above:
C=CC(=O)N1CCC[C@@H](n2nc(-c3ccc4ccccc4c3)c3c(N)ncnc32)C1
IC50 (EGFR L858R): 1.1 ± 0.6 nM
